Published values pooled from the literature.
Each numbered part is a random draw from the data of one study; scales do not carry over between parts. Substitutions count along the parent as printed.
Chain of UniProt P08588 (whole entry, looked up): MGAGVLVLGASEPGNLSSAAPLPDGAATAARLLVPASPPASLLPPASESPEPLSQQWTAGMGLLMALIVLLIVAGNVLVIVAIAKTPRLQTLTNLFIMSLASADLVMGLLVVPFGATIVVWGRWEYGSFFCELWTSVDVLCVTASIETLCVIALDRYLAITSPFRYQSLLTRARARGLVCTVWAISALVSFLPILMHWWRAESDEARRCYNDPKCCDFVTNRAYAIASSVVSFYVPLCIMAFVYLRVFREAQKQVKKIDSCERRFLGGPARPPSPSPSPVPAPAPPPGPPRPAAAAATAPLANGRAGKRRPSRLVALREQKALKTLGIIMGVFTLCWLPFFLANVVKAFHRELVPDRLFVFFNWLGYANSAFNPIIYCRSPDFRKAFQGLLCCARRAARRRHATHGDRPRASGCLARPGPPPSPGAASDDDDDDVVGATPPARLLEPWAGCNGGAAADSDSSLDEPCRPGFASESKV
Chain of UniProt Q86UE8 (whole entry, looked up): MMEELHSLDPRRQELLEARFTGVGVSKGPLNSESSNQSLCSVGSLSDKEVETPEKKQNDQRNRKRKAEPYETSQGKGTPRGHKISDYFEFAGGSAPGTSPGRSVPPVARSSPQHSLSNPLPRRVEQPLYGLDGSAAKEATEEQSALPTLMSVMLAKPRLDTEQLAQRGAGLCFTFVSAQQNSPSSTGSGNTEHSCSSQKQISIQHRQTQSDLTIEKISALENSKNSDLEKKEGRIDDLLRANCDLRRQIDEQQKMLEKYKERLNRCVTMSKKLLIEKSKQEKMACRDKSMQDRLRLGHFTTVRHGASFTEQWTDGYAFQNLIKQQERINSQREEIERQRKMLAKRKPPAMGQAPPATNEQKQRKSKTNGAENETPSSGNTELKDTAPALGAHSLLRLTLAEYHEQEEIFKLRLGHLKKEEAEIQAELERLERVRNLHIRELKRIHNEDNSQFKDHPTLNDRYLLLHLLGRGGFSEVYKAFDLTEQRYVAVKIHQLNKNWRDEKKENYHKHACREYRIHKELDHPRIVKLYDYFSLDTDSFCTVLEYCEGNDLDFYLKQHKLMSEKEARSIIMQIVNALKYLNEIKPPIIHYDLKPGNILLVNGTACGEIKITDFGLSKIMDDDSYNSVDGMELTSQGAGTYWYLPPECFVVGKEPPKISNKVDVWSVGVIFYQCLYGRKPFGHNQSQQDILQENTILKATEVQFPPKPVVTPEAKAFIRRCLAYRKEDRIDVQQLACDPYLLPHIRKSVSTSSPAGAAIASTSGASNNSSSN
Chain of UniProt Q8TBX8 (whole entry, looked up): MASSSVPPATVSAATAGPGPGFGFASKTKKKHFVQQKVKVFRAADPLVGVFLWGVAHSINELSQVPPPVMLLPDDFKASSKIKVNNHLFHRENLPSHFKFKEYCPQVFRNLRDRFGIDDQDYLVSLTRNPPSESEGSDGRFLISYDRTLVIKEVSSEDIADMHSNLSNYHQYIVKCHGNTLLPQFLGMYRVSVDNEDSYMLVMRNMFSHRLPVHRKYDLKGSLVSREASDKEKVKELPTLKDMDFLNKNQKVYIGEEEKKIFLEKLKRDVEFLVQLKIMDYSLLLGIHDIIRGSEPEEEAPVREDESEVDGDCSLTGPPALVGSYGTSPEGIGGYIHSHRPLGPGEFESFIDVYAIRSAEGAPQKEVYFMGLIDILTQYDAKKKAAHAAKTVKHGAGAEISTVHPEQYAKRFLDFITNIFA
Chain of UniProt Q9H4A3 (whole entry, looked up): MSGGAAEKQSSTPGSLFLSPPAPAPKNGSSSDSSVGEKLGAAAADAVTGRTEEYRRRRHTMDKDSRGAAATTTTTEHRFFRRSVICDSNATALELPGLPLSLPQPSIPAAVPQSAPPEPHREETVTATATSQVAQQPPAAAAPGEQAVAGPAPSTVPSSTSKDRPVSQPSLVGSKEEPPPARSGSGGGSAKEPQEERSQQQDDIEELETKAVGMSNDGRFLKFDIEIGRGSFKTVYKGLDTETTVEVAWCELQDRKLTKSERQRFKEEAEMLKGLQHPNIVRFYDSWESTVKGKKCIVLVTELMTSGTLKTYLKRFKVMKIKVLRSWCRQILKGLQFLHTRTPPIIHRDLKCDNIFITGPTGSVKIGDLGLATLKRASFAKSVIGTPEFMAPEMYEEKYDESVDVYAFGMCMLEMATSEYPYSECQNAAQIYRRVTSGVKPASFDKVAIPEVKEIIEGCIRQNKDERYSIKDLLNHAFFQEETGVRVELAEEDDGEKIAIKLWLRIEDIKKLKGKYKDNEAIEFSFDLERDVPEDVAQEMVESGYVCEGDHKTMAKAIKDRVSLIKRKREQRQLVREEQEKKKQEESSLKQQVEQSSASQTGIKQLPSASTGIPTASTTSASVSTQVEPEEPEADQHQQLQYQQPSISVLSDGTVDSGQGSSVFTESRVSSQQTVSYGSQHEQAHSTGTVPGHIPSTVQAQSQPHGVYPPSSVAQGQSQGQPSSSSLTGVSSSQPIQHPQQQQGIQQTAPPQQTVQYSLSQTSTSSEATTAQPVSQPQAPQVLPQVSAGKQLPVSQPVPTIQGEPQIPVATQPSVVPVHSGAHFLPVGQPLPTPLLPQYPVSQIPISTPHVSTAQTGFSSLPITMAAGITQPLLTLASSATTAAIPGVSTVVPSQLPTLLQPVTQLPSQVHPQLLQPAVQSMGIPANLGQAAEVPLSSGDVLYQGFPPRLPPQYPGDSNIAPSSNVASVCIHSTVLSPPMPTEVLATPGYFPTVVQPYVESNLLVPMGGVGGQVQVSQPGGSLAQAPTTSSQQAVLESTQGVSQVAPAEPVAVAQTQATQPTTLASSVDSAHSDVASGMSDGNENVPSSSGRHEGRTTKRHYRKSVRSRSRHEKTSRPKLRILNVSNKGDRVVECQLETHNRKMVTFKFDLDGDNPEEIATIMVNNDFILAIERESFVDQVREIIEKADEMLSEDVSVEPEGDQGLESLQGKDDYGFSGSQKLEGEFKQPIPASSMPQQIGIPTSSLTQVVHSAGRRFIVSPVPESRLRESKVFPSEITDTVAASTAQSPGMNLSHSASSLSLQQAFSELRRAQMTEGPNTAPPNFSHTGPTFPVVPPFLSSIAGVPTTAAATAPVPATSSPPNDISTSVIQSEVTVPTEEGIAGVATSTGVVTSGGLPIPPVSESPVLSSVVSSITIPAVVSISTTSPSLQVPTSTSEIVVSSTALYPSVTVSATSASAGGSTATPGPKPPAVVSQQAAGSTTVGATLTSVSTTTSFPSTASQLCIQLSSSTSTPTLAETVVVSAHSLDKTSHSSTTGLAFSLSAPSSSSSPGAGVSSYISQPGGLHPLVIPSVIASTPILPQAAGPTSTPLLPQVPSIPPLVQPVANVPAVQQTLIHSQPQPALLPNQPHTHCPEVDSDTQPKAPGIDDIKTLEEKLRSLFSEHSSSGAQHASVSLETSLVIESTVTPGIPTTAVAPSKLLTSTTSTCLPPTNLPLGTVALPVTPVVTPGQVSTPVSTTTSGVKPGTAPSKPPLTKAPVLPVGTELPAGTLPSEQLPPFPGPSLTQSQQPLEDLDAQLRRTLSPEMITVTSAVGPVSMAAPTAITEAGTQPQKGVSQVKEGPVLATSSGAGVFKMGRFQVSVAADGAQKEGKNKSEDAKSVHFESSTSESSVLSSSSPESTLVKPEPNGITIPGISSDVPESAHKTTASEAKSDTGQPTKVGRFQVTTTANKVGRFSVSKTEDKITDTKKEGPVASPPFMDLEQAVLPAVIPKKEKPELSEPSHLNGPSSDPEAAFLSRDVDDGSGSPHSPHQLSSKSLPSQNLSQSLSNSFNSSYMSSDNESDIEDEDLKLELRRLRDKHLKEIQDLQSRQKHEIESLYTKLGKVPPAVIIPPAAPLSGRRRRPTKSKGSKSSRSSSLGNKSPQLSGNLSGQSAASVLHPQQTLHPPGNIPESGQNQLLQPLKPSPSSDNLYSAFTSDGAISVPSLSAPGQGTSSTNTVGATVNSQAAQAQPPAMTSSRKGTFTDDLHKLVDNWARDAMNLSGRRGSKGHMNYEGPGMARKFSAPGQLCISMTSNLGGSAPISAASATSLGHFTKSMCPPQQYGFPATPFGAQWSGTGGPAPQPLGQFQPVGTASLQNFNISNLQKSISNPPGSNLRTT

Series 1
Structure (SMILES): O=C(NS(=O)(=O)c1ccc(NCC2CCOCC2)c([N+](=O)[O-])c1)c1ccc(N2CCN(Cc3ccc(C(F)(F)F)cc3-c3ccc(Cl)cc3)CC2)cc1Oc1cnc2[nH]ccc2c1
Method: competition with immobilised ligand
Tested at: 1 µM
TLK2 (Homo sapiens, UniProt Q86UE8); cell-free assay — remaining binding: 100%.
For PIP4K2C (Homo sapiens, UniProt Q8TBX8); cell-free assay: remaining binding read 100%.
It gave 87% for remaining binding (Tyrosine-protein kinase ABL1, non-phosphorylated (ABL1, Homo sapiens, UniProt P00519, F317I); binding).
The remaining binding was 100% (PIK3CA (Homo sapiens, UniProt P42336, I800L); cell-free assay).
WNK1 (Homo sapiens, UniProt Q9H4A3); cell-free assay — remaining binding: 100%.
The remaining binding was 95% (CHEK2 (Homo sapiens, UniProt O96017); cell-free assay).
For CDKL2 (Homo sapiens, UniProt Q92772); cell-free assay: remaining binding read 100%.
The remaining binding was 66% (FLT3 (Homo sapiens, UniProt P36888, F691L/ITD); cell-free assay).

Series 2
Host: mouse
Sample: microsomes or S9
Tested at: 2 µM
Time: 0.5 h
`COc1cc(=O)[nH]cc1C(=O)NC1CCN(c2c(F)cccc2F)C1` (centres unmarked) has a remaining compound of 73.5%.
`O=C(c1ccccc1)c1ccccc1Nc1cccc2c1N(c1ncccn1)CC2` has a remaining compound of 0.154%.
`CC(=O)c1ccc(/C=C/c2ccc(C(C)(C)C)cc2)n1C` has a remaining compound of 83%.

Series 3
Target: CEP164, C-terminal peptide (human)
Method: DHFR complementation, deep sequencing
Sample: yeast
Setting: single substitutions, model-inferred values
Baseline: wild type
Reading: higher = weaker binding
Starting sequence: PDZK1, PDZ domain 2 (human); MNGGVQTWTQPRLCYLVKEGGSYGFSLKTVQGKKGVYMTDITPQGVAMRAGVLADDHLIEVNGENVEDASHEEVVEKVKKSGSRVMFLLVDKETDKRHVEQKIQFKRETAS; partner HNRVKVYRF
Under “binding free energy change”, `P11R` is recorded as 0.429 kcal/mol.
`E76G`: “binding free energy change” 0.13 kcal/mol.
Under “binding free energy change”, `G51P` is recorded as 1.83 kcal/mol.
Under “binding free energy change”, `K80P` is recorded as 1.69 kcal/mol.
`R107L` — result for “binding free energy change”: -0.0643 kcal/mol.
`R49W`: “binding free energy change” -0.263 kcal/mol.
Under “binding free energy change”, `Y37Q` is recorded as 0.31 kcal/mol.
For `E76L`, “binding free energy change” read 0.161 kcal/mol.

Single results of other studies
The IC50 of `CN(C)c1ccc(CNC2(Cc3cc(-c4cccc(O)c4)on3)COC2)cc1` is reported as at least 100 µM (Beta-1 adrenergic receptor (ADRB1, Homo sapiens, UniProt P08588); antagonist).

A few entries again (series 2):
`O=C(c1ccccc1)c1ccccc1Nc1cccc2c1N(c1ncccn1)CC2` has a remaining compound of 0.154%.
`CC(=O)c1ccc(/C=C/c2ccc(C(C)(C)C)cc2)n1C` has a remaining compound of 83%.
